Measurements gathered from unrelated publications.
Each line is one published result; not all experiments were run side by side. Numbers after ± are the reported error. No end group written: not given here.
CHRM1: Muscarinic acetylcholine receptor M1 (CHRM1, Homo sapiens, UniProt P11229)
UniProt P11229, sequence (whole entry, looked up): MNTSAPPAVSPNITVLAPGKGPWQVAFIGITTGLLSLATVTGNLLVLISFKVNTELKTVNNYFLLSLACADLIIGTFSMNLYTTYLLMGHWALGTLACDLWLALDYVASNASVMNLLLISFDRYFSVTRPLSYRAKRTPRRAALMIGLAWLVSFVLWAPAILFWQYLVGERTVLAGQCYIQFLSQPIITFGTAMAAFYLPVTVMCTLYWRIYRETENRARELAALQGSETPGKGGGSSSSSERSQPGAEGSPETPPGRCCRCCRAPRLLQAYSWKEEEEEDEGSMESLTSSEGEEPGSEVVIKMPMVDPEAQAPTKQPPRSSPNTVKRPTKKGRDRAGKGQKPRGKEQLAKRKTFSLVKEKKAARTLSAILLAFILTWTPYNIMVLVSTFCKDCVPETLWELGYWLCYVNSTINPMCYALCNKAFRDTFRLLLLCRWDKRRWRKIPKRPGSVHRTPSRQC
T1: ssRNA, 16S rRNA A-site model (Escherichia coli); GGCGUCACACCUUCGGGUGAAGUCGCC
B1: side-chain stapled; chain VRTKQEARKSTGG (also: sidechain bridge or staple (positions not given here))
UniProt Q92731, sequence (whole entry, looked up): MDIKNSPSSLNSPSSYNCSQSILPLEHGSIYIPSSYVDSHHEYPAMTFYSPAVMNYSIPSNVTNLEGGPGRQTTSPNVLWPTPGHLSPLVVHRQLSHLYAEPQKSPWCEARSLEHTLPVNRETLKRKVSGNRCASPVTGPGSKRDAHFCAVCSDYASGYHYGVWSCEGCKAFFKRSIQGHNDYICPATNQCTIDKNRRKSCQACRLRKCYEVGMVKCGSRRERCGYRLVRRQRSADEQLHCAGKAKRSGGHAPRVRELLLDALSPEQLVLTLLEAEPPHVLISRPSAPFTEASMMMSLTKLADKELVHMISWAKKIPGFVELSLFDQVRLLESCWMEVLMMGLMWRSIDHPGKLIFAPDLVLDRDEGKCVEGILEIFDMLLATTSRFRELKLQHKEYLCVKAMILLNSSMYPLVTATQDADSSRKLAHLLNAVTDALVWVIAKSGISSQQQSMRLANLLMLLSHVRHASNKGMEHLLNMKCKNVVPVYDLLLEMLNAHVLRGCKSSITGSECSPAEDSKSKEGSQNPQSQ
UniProt P08173, sequence (whole entry, looked up): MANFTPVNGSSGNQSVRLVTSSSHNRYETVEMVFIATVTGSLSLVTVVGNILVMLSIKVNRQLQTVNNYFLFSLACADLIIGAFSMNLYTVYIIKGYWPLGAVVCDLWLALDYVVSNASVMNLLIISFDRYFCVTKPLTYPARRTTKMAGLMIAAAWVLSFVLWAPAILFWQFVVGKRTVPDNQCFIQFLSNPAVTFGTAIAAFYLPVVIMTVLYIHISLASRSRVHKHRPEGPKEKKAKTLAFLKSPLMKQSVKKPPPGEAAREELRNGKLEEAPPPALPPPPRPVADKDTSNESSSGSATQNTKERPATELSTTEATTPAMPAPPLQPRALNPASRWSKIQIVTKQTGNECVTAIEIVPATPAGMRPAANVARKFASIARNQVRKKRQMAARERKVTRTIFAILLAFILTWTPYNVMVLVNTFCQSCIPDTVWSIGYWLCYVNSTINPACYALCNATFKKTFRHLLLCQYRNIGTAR
UniProt Q9Y5Y9, sequence (whole entry, looked up): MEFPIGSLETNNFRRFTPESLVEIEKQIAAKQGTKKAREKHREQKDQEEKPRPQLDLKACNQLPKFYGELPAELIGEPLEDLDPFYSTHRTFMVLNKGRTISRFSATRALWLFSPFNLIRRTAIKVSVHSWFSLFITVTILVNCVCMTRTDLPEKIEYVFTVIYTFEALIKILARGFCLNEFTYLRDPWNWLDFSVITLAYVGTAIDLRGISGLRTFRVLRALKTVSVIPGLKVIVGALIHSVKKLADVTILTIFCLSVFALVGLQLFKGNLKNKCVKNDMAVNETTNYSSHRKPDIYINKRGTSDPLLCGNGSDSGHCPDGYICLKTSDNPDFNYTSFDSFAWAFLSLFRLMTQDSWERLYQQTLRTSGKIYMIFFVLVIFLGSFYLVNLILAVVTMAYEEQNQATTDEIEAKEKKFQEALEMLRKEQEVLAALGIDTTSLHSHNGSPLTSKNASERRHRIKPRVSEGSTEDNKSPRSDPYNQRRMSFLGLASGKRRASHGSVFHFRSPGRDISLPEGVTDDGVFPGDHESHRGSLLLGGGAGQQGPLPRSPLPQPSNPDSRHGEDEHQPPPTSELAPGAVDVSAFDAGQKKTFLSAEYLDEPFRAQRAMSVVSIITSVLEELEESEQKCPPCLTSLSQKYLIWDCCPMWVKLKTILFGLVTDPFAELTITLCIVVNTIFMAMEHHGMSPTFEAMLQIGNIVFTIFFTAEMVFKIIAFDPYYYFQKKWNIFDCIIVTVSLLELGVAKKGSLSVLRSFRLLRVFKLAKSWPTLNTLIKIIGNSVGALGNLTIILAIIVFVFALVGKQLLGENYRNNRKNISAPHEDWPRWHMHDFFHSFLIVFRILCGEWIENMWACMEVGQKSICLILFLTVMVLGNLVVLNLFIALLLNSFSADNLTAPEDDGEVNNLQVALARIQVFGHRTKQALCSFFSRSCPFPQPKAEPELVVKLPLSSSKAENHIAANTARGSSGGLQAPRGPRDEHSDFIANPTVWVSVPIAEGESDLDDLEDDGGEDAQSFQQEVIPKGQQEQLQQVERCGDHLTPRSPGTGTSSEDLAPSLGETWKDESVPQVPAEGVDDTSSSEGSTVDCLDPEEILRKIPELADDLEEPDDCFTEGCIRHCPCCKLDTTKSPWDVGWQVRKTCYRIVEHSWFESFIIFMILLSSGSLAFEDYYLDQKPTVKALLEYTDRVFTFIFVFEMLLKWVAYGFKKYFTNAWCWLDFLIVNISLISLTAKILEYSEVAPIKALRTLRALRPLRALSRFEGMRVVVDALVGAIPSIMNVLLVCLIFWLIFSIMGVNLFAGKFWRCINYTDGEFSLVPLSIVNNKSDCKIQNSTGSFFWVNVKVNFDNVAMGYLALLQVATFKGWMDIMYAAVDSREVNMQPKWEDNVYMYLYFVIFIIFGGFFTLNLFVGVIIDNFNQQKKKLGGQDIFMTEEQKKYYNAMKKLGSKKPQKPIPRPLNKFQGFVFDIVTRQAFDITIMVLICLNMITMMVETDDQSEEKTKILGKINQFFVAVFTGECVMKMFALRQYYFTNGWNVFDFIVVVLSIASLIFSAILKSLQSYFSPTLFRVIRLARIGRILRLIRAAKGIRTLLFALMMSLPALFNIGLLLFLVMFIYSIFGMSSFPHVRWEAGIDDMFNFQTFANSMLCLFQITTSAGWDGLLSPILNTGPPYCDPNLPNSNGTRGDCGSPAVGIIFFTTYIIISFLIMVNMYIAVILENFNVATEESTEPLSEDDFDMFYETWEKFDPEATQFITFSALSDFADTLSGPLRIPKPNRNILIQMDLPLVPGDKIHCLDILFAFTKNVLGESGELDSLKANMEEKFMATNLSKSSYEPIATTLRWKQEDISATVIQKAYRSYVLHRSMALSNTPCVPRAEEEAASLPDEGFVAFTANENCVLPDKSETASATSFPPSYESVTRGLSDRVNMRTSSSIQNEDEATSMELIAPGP
UniProt B2RXH2, sequence (whole entry, looked up): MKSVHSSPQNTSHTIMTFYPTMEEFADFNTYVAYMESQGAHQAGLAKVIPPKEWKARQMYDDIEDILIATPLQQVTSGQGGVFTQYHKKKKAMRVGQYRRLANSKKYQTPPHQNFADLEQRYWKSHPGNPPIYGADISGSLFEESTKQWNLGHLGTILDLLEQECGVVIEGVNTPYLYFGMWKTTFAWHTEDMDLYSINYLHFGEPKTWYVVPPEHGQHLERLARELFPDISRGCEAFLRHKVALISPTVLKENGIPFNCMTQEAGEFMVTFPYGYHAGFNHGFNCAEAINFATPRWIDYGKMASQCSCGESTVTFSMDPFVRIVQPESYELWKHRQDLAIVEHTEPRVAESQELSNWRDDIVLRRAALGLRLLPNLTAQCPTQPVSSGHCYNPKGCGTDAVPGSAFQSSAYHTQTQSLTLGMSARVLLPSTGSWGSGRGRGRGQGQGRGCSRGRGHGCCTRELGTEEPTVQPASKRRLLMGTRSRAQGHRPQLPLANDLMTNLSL
UniProt P63138, sequence (whole entry, unmodified, looked up): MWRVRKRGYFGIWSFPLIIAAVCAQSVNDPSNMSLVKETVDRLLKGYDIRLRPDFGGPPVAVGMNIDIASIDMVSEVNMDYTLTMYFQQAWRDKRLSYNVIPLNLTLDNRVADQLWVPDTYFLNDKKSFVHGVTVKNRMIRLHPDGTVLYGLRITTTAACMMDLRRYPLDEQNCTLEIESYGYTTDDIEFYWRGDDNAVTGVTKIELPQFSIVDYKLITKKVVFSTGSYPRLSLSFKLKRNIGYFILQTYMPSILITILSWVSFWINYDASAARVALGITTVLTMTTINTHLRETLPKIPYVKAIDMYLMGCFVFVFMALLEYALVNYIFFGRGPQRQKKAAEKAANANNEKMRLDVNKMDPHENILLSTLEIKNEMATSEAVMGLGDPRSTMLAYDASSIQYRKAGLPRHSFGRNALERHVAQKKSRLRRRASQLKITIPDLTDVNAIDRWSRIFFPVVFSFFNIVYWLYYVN
UniProt O43918, sequence (whole entry, unmodified, looked up): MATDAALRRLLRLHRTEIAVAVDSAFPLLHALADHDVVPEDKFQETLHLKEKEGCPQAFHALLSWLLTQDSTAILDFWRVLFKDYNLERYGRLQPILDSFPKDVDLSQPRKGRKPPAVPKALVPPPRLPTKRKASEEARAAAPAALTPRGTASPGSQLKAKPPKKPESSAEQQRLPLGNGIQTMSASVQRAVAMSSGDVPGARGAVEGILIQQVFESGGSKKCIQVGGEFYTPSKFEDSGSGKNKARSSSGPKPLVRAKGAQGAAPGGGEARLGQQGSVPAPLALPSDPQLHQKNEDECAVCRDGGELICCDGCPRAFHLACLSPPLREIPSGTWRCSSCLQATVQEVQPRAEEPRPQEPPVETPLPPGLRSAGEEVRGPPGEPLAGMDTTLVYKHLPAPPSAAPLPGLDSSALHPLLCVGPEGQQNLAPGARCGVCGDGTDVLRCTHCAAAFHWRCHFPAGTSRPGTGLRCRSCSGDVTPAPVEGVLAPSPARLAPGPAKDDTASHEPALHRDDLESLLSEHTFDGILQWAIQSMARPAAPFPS

Molecule | tested on | test | system | conditions | how to read | endpoint | result
NC[C@@H]1O[C@H](O[C@H]2[C@@H](O)[C@H](O[C@@H]3[C@@H](O)[C@H](N)C[C@H](N)[C@H]3O[C@H]3O[C@H](CN)[C@@H](O)[C@H](O)[C@H]3N)O[C@@H]2CO)[C@H](N)[C@@H](O)[C@@H]1O | T1, ssRNA, 16S rRNA A-site model (Escherichia coli) | competition with F-neo, competitor, fluorescence displacement | – | pH 7.0, NaCl 50 mM, with: F-neo 0.1 µM | – | IC50 | 89 nM
Brc1ccc2[nH]c(-c3ccccc3)cc2c1 | RAW264.7 | NO release, inhibitor, Griess | – | 50 µM, 20 h, LPS-stimulated | – | inhibition | 42.4%
Cn1ncc2ccc(COc3ccccc3-c3cc(=O)n(C4CCCCC4O)cn3)cc21 (centres unmarked) | CHRM1 | positive allosteric modulator, IP1 accumulation | CHO-M1 cells | 1 µM, 60 min, 37 °C, with: ACh | reference: ACh alone, higher = stronger potentiation | ΔpEC50 of ACh | 0.88 ± 0.1 log units
CCN(c1ccccc1)S(=O)(=O)C1CC2OC1C(c1ccc(O)cc1)=C2c1ccc(O)cc1 (centres unmarked) | ESR2 (Homo sapiens, UniProt Q92731) | reporter gene, antagonist | HepG2 | with: estradiol 10 nM | reference: E2 response, negative is inverse agonism | efficacy | -10 ± 2%
C[C@H](N)C(=O)N[C@@H](CCCNC(=N)N)C(=O)N[C@H](C(=O)N[C@@H](CCCCN)C(=O)N[C@@H](CCC(N)=O)C(=O)N[C@H](C(=O)N[C@@H](C)C(=O)N[C@@H](C)C(=O)N[C@@H](CCCCN)C(=O)N[C@@H](CO)C(=O)O)[C@@H](C)O)[C@@H](C)O | Autoimmune regulator, PHD1 domain (AIRE, Homo sapiens, UniProt O43918) | ITC | – | concentration not given, pH 7.2, 23 °C | – | binding enthalpy ΔH | -7.3 ± 0.3 kcal/mol
c1ccc2[nH]c(-c3ccsc3)cc2c1 | RAW264.7 | NO release, inhibitor, Griess | – | 50 µM, 20 h, LPS-stimulated | – | inhibition | 66.3%
O=c1cc(N2CCOCC2)oc2c(OCc3ccccc3)cccc12 | PIK3CA (Homo sapiens, UniProt P42336, H855E) | enzyme activity | – | concentration not given, His-Glu swap | reference: wild type | fold change in selectivity | 4
COC(=O)c1scc(C)c1NC(=O)C(C)N1CCN(C(C)C)CC1 (centres unmarked) | SCN10A (Homo sapiens, UniProt Q9Y5Y9) | cell membrane chromatography | – | – | higher = stronger binding | capacity factor k′ | 55
COc1ccc(COc2ccccc2-c2cc(=O)n(C3CCCCC3O)cn2)cc1 (centres unmarked) | CHRM1 | positive allosteric modulator, IP1 accumulation | CHO-M1 cells | 10 µM, 60 min, 37 °C, with: ACh | reference: ACh alone, higher = stronger potentiation | ΔpEC50 of ACh | 1.47 ± 0.22 log units
CC1(C)C=Cc2c(ccc3c2OC[C@@H](c2ccc(O)cc2O)C3)O1 | Gabra1/Gabrb2, with gamma2 subunit (Rattus norvegicus, UniProt P62813+P63138, N289M) | ion current, agonist, two-electrode voltage clamp | Xenopus laevis oocytes expressing α1β2(N265M)γ2 | 30 µM, unit not given, with: no GABA | reference: GABA current | direct activation | 0
O=c1cc(-c2ccccc2OCc2ccc([N+](=O)[O-])cc2)ncn1C1CCCCC1O (centres unmarked) | CHRM1 | positive allosteric modulator, IP1 accumulation | CHO-M1 cells | 1 µM, 60 min, 37 °C, with: ACh | reference: ACh alone, higher = stronger potentiation | ΔpEC50 of ACh | 0.84 ± 0.12 log units
O=C(Nc1nc2cccnc2s1)c1cccnn1 | CHRM4 (Homo sapiens, UniProt P08173) | calcium mobilization, positive allosteric modulator | CHO expressing hM4 and Gqi5 | concentration not given, with: acetylcholine EC20 | – | activity | inactive
CC(C)=CCC/C(C)=C/CC/C(C)=C/CC/C(C)=C/CO | All-trans-retinol dehydrogenase [NAD(+)] ADH7 (Adh7, Rattus norvegicus, UniProt P41682) | substrate | – | 50 µM, pH 7.4, with: 2 mM NAD+ | – | dehydrogenase activity | 3.3 U/mg
Oc1cc2c(cc1O)[C@@H]1c3ccc(O)c(O)c3OC[C@]1(O)C2 | KDM4E (Homo sapiens, UniProt B2RXH2) | inhibitor, FDH-coupled | – | – | reference: 20 µM over 2.5 µM ferrous ammonium sulfate | IC50 ratio | 8.9
B1 | SETD7 (Homo sapiens, UniProt Q8WTS6) | peptide methylation, substrate, MALDI-TOF MS | – | 10 µM, 3 h, pH 8.0, 37 °C, enzyme 500 nM, with: SAM 30 µM | – | methylation conversion | ≥ 90%
COC(=O)c1ccc(COc2ccccc2-c2cc(=O)n(C3CCCCC3O)cn2)cc1 (centres unmarked) | CHRM1 | allosteric agonist, IP1 accumulation | CHO-M1 cells | 10 µM, unit not given | reference: maximum ACh response | change in baseline activity | 40.8
CCCCNc1ccc(C(=O)OCCN(CC)CC)c(OC)c1 | ryanodine receptor 2, sheep | [3H]ryanodine binding rate, inhibitor | cardiac SR vesicles | – | – | threshold concentration | > 1 µM

For quick reference, copied from above:
Molecule | tested on | test | system | conditions | how to read | endpoint | result
CC(C)=CCC/C(C)=C/CC/C(C)=C/CC/C(C)=C/CO | All-trans-retinol dehydrogenase [NAD(+)] ADH7 (Adh7, Rattus norvegicus, UniProt P41682) | substrate | – | 50 µM, pH 7.4, with: 2 mM NAD+ | – | dehydrogenase activity | 3.3 U/mg
Oc1cc2c(cc1O)[C@@H]1c3ccc(O)c(O)c3OC[C@]1(O)C2 | KDM4E (Homo sapiens, UniProt B2RXH2) | inhibitor, FDH-coupled | – | – | reference: 20 µM over 2.5 µM ferrous ammonium sulfate | IC50 ratio | 8.9
B1 | SETD7 (Homo sapiens, UniProt Q8WTS6) | peptide methylation, substrate, MALDI-TOF MS | – | 10 µM, 3 h, pH 8.0, 37 °C, enzyme 500 nM, with: SAM 30 µM | – | methylation conversion | ≥ 90%
